Experimental data from different studies.
Every numbered part comes from another study and shows a few of its results, in no order. Positions count from the first letter of the parent shown.

Set 1
Target: Sal-like protein 4, full length isoform A (SALL4, Homo sapiens, UniProt Q9UJQ4, residues 1-1053)
Sequence of UniProt Q9UJQ4 (whole entry, looked up): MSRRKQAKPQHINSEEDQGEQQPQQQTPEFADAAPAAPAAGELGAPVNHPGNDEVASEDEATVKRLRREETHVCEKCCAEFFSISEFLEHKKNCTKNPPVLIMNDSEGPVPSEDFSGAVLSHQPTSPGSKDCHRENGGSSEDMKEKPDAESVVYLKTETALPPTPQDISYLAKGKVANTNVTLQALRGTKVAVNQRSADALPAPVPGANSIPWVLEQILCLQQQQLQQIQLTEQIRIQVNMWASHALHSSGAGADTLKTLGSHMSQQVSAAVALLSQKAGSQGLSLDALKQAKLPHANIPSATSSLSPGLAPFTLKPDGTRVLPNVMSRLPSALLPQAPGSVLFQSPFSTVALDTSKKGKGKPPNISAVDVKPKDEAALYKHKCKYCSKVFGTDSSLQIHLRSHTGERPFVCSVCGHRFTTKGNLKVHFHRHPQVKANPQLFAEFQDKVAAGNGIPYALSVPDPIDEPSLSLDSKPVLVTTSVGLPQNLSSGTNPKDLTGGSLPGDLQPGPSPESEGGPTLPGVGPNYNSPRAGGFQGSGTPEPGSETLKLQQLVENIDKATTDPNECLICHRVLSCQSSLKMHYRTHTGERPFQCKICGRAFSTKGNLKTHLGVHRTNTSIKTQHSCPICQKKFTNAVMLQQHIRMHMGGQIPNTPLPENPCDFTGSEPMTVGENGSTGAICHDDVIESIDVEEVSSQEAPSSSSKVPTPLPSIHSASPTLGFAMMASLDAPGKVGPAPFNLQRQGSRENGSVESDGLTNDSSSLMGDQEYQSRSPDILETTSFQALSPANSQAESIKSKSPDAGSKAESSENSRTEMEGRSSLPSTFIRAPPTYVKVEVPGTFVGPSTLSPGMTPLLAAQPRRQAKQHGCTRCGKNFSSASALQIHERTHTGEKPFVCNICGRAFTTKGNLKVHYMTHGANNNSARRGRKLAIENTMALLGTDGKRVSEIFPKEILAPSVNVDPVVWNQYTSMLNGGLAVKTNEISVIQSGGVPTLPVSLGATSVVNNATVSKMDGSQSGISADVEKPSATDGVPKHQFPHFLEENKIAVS
Technique: universal PBM
Molecule type: double-stranded DNA, one strand shown
Matrix: in vitro
Concentration: 600 nM
Notes: 8-mer, flanks averaged, mean of replicates
Direction: higher = stronger binding
Sequence | E-score
AAAGAAAC | 0.119
CTCTCTAC | 0.0446
CCGTCAAC | -0.102
ATGGATCC | 0.0506
AGGGACTA | -0.0486
ATGTAGCA | 0.119
AACAATGA | 0.204
GATAGAGA | 0.0386
ACTAGGTG | -0.178
GTGGCATA | 0.0784
AGTTATCG | 0.25
TTGACCAA | 0.0349

Set 2
Target: CCNB1, cyclin fold, Cln2 fusion (human)
Technique: yeast growth competition, sequencing
Matrix: yeast
Notes: weak parent motif
Baseline: not given
Direction: higher = stronger binding
Parent: WEE1 docking peptide (human); HKTFRKLRLFDTP
Change | normalised enrichment score
R5C | -0.574
R8M | 0.304
R5A | -0.791
L7F | 0.522
K2V | -0.312
L9R | -0.311
L9M | 0.344
T12R | 0.796

Set 3
Target: Ras GTPase-activating protein-binding protein 1, full length (G3BP1, Homo sapiens, UniProt Q13283)
Sequence of UniProt Q13283 (whole entry, looked up): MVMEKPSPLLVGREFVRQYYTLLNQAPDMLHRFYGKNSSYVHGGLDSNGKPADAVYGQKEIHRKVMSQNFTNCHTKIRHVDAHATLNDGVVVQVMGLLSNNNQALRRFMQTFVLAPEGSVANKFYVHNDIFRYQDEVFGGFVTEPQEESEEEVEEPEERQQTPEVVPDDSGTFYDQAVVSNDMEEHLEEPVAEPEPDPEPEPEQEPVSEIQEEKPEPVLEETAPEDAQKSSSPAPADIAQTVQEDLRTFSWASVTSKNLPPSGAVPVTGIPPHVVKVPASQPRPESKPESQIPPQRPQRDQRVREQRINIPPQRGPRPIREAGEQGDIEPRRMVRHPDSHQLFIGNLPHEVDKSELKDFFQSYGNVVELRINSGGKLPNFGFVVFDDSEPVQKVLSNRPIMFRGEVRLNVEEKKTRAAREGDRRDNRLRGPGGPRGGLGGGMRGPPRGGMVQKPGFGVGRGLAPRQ
Technique: RNA Bind-n-Seq
Molecule type: RNA
Matrix: in vitro
Concentration: 200 nM
Notes: whole 134-nt RNA, ends assumed
Added: 150 mM LiCl
Baseline: input library
Direction: higher = stronger binding
All molecules: 7-deaza-guanosine replaces G
Sequence | log2 enrichment
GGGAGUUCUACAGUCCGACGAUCUGGGAGGUGGAUUUUGUUUAUUUUUUUAGCUGAUUUCCAGGGGUGGGAAUUUUUUUUUAAUAUGUGUCAUGAAUAAAGUUGUUUUUGAAAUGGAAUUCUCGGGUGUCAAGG | -0.0452
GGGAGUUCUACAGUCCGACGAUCCACAGACAACACGCACCCACACAGACACAGAGGGAAGGGGUUGGGAUGGGGACAGGGUGCGCAGCAGGGCGGGGUAGGACCCCAGCCCCUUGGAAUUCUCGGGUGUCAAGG | -0.661
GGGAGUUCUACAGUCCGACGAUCUGGGAGGUGGAUUUUGUUUAUUGUUUUAGCUCAUUUCCAGGGGUGGGAAUUUUUUUUUAAUAUGUGUCAUGAAUAAAGUUGUUUUUGAAAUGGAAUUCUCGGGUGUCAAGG | -0.163
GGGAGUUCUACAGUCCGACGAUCCAAGUCCUGUGCUACACAUCGUAUGUACCGAAUCGGAAAGGGAAAGGGAAAGGGGAAAGUAUUAUGUUACGCCGUUCGGAUCUGCACUUCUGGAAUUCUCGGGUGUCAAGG | -0.153
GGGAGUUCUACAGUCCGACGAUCGCAGAAAGUAAAAACAAAUGGAAAUGCUUCGGAUAGUGGCAGGGGUGGGGGUUGCUAAGGAAAGGGUGGGAUGGGAGUGGGUAAAGAGUUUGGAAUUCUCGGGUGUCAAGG | 0.127
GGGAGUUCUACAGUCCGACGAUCUCAAGUCCUGUGCUACACAUCGUAUGUACCGAAUCGGGGCCCGGCCCGGCCCGGAAAGUAUUAUGUUACGCCGUUCGGAUCUGCACUUCCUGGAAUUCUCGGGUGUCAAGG | -0.522
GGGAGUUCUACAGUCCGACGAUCGCAGGAAGUAAAAACAAAUGGAAAUGCUUCGGAUAGUGGCAGGGGUGGGGAAAGCUAAGGAAAGGGUGGGAUGGGAGUGGGUAAAGAGUUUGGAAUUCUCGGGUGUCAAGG | 0.312
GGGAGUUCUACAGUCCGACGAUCUCAAGUCCUGUGCUACACAUCGUAUGUACCGAAUCGGGGCCGGCCGGGGCCGGGGAAAGUAUUAUGUUACGCCGUUCGGAUCUGCACUUCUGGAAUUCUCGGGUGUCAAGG | -0.101
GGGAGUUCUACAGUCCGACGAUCUGGGAGGUGGAUUUUGUUUAUUUUUUUAGCUCAUUUCCAGGGGUGGGAAUGUUUUUUUAAUAUGUGUCAUGAAUAAAGUUGUUUUUGAAAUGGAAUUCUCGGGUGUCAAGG | -0.508
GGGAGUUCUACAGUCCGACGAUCCUGUGCUACACAUCGUAUGUACCGAAUCGGGCCCCCCCGGGGCCCCCCCGGGCCCCCCCGGAAAGUAUUAUGUUACGCCGUUCGGAUCUGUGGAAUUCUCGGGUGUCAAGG | -0.548
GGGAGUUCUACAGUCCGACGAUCCACAGACAACACGCACCCUCACAGACACAGAGGGAAGGGGUUGGGAUGGGGACAGGGUGCACAGCAGGGCGGGGUAGGACCCCAGCCCCUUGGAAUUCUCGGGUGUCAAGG | -1.04

Mixed results
Substance | target | assay | test system | setting | how to read | endpoint | value
PhoQ, residues 284 288 289 292 302 303 SLSVQF | PhoP, residues 12 14 15 18 19 STHWV (Escherichia coli, UniProt P23836) | Sort-seq, refers to: YFP reporter | E. coli | PhoQ-PhoP variant library, added: 10 µM Mg2+ | baseline: high Mg2+ state, higher = stronger signaling | fold induction | 18.8

A few entries again (set 2):
Change | normalised enrichment score
R5C | -0.574
R8M | 0.304
